Assay results of several laboratories.
Each line is one published result; not all experiments were run side by side. Values joined by “and” are separate records of one study, mostly repeats; a detail may differ.
Target: LIM domain kinase 1 (LIMK1, Homo sapiens, UniProt P53667)

COc1cc(Nc2nc(C)cc(-c3cnn4nc(OC)ccc34)n2)cc(C(F)(F)F)c1
remaining activity (inhibitor; 1 µM; baseline: control): 75%

C=CC(=O)N1CCCC(n2c(=O)c3ncccc3n(Cc3ccc(Oc4ccccc4)cc3)c2=O)C1 (stereo not drawn)
remaining binding (cell-free assay, competition with immobilised ligand; 1 µM): 100%

O=C=[N][Ru-4]123([n]4c5ccc(O)cc5c5c6c(c7cc(F)c[n+]1c7c54)C(=O)NC6=O)[S+]1CC[S+]2CC[S+]3CC1 (stereo not drawn)
remaining activity (enzyme activity; 100 nM, human enzyme, with: 10 µM ATP; baseline: untreated): 103%

CCn1cc(C(=O)O)c(=O)c2c(N)c(F)c(NC3CCCCC3)cc21
inhibition (kinase activity; 0.1 µM, with: ATP at Km): -0.7%

Nc1ncc2c(n1)-c1c([nH]c3ccc(C4=CCOCC4)cc13)CCC2
remaining binding (binding, competition with immobilised ligand; 1 µM): 100%

C=CC(=O)N1CCc2ccc(-n3c(=O)ccc4cnc5ccc(-c6cnn(C)c6)cc5c43)cc21
remaining binding (KINOMEscan; 1 µM; baseline: DMSO control): 100%

C=CC(=O)Nc1cccc(-c2cnc3[nH]cc(C(=O)NC(C)(C)C)c3n2)c1
inhibition (enzyme activity, inhibitor; 0.1 µM): 34%

COC(=O)[C@@]1(C)C=C(C(=O)Nc2cccc(C(=O)Nc3ccc(Nc4nccc(-c5cccnc5)n4)c(C)c3)c2)C(=O)CC1
remaining activity (enzyme activity, inhibitor, radiometric; 1 µM): 44%

C=CC(=O)N1Cc2nc(-c3cc(-c4cc(Cl)cnc4Cl)c(F)cc3F)n(-c3ccncn3)c2C1
inhibition (cell-free assay, inhibitor; 1 µM): -1.1%

C[C@H]1CN(C(=O)c2cn(-c3ccnc(N)n3)c3cc(C#CC4(O)CCCCC4)ccc23)CCN1
inhibition (cell-free assay, TR-FRET; 1 µM): -6%

N[C@H]1CC[C@H](Nc2nccc(-c3cccnc3Oc3ccc(NC(=O)NC4CC4)c4ccccc34)n2)CC1
log2 LFQ intensity (kinobead competition pulldown; HEK293/HCT116 lysate mixture; 10 µM, 1 h, 4 °C; lower = stronger competition): 24.3 and 24.4

COc1ccc(NC(=O)Nc2ccc3c(c2)C(=O)N(C(C)CO)CC(C)C(CN(C)Cc2ccc4c(c2)OCO4)O3)cc1 (stereo not drawn)
remaining activity (kinase activity, KinaseProfiler; 0.03 µM, species human; baseline: control): 109%

NC(=O)[C@@H](O)C[C@H]1CCc2sc3ncnc(O[C@H]4CC[C@H](N5CCOCC5)CC4)c3c21
inhibition (enzyme activity, inhibitor; 10 µM): 25%

COc1ccc(C(=O)/C=C/c2ccccc2-c2c[nH]c3ccc(C#N)cc23)c(O)c1
inhibition (enzyme activity, inhibitor; 20 µM): -3%

CN1CCN(Cc2ccc(-c3ccc(CO[C@H]4CCC[C@@H]4NC(=O)c4cc(-c5cnn(C)c5)cnc4N)cc3)cc2)CC1
inhibition (enzyme activity, inhibitor; 0.1 µM): 4%
